Assay results gathered from unrelated publications.
Each numbered part is a random draw from the data of one study; scales do not carry over between parts.
UniProt Q8N752, sequence (whole entry, looked up): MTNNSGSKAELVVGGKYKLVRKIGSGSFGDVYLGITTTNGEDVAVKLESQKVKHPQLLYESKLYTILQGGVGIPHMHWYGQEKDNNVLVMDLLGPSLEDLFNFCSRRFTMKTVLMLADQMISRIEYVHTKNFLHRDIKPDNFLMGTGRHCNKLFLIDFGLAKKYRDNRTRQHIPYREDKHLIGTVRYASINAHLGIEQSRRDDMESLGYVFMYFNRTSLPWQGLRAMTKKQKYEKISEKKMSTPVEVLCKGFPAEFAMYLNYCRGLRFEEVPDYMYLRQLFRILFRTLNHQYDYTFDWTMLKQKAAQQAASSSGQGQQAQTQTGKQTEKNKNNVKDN

Block 1
Target: Microphthalmia-associated transcription factor, full length (MITF, Homo sapiens, UniProt O75030-10, residues 1-413)
Technique: protein-binding microarray
Molecule type: hairpin DNA
Matrix: in vitro
Concentration: not given
Setting: whole hairpin DNA, median over replicate spots
Baseline: not given
Reading: higher = stronger binding
Quantity: median fluorescence
CACTTAGCACGTGGTTTTGGTCCTCCAAAACCACGTGCTAAGTGACACTC: 20700 a.u.
GAGGCCTAGCACATGCTGCCTCCTGGCAGCATGTGCTAGGCCTCACACTC: 11200 a.u.
GAGGCCTAGCCCGTGCTGCCTCCTGGCAGCACGGGCTAGGCCTCACACTC (5mC at 11): 7420 a.u.
CACTTAGCACGTGACTTTGGTCCTCCAAAGTCACGTGCTAAGTGACACTC: 28300 a.u.
CACTTCGCACGTGATTTTGGTCCTCCAAAATCACGTGCGAAGTGACACTC (5mC at 6 38): 23300 a.u.
CACTCGGCACGTGATTTTGGTCCTCCAAAATCACGTGCCGAGTGACACTC (5mC at 5 39): 25000 a.u.
CACTTAGCACTTGATTTTGGTCCTCCAAAATCAAGTGCTAAGTGACACTC: 5010 a.u.
GAGGCCTAGCACCGGCTGCCTCCTGGCAGCCGGTGCTAGGCCTCACACTC (5mC at 13 31): 5380 a.u.

Block 2
Target: Sal-like protein 4, full length isoform A (SALL4, Homo sapiens, UniProt Q9UJQ4, residues 1-1053)
UniProt Q9UJQ4, sequence (whole entry, looked up): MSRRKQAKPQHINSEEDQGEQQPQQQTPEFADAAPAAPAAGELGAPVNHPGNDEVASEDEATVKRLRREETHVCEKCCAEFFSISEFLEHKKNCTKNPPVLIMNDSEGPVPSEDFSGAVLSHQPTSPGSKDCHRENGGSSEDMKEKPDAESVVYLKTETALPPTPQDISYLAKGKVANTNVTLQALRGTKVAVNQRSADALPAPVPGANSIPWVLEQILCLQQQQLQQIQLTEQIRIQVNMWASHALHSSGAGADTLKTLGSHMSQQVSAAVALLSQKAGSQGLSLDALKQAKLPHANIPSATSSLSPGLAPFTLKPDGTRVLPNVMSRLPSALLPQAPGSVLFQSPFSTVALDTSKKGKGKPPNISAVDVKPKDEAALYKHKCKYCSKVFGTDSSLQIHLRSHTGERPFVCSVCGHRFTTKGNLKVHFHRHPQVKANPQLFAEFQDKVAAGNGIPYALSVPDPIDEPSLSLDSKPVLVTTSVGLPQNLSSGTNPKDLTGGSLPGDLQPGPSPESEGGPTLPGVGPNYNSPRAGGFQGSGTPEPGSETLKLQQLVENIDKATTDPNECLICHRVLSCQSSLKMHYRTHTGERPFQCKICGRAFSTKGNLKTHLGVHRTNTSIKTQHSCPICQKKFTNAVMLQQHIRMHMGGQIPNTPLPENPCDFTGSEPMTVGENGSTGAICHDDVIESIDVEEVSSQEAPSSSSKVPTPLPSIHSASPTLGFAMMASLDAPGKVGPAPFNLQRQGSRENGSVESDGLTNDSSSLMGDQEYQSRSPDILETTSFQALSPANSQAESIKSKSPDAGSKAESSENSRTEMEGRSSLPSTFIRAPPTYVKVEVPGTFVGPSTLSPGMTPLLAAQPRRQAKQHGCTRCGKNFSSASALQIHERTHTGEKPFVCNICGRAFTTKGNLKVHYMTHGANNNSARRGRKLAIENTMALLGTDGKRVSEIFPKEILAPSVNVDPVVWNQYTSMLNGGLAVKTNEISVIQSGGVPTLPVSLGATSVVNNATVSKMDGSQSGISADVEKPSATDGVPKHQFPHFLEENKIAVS
Technique: universal PBM
Molecule type: double-stranded DNA, one strand shown
Matrix: in vitro
Concentration: 600 nM
Setting: 8-mer, flanks averaged, mean of replicates
Reading: higher = stronger binding
Quantity: E-score
ACTTGCGA: -0.00603
CACCGCCG: -0.272
AGCATCAT: 0.186
CCGGGGAC: -0.347
ACTCGCTC: -0.145
TGCCGAAA: -0.11
AACGCCCG: -0.215
ACATACTA: 0.0536

Block 3
Target: Fragile X messenger ribonucleoprotein 1, C-terminal low-complexity region (Fmr1, Mus musculus, UniProt P35922)
Technique: RNA Bind-n-Seq
Molecule type: RNA
Matrix: in vitro
Concentration: 200 nM
Setting: whole 134-nt RNA, ends assumed
With: 150 mM LiCl
Baseline: input library
Reading: higher = stronger binding
Quantity: log2 enrichment
Each molecule: 7-deaza-guanosine replaces G
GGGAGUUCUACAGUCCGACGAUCUCCUGUGCUACACAUCGUAUGUACCGAAUCGGGGAAAAAAAGGGGAAAGGGGAAAGGGGAAAGUAUUAUGUUACGCCGUUCGGAUCUGCAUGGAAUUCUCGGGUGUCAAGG: -0.233
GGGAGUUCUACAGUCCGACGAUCGUCCUGUGCUACACAUCGUAUGUACCGAAUCGGGGUUUUUGGUUUUUGGGGUUUUUGGGAAAGUAUUAUGUUACGCCGUUCGGAUCUGCAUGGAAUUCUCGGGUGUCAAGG: -0.928
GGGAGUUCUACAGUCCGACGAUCUCUCUUAUGCUAUUGGAGUUUCUCAUCCAUUAUCUAUCUCCAUUUUCCAUUAUGGUACCUCUCAGAAGAGUGAGAGAGAGCUAUUAGAGAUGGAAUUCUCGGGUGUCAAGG: 0.189
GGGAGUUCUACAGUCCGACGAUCCCUGUGCUACACAUCGUAUGUACCGAAUCGGGGUUUUUGGGGAAAGGGGUUUUUUUGGGGAAAGUAUUAUGUUACGCCGUUCGGAUCUGCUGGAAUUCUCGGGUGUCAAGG: -0.486
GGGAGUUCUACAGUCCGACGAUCUUGACCUAGAGGAUGAGACCAUUGAUGCCGAGGUCAUGAACUCUCUAGCAGUUACUAUGGAUGACUUCCGGGUAAGGACCACACCCGUGCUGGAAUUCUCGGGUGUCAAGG: -1.92
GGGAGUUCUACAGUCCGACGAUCCACAUACAACACGCACCCACACAGACACAGAGGGAAGGGGUUGGGAUGGGGACAGGGUGCACAGCAGGGCGGGGUAGGACCCCAGCCCCUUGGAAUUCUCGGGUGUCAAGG: 0.0381
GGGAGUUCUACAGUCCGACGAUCUGAACCUUCCAAUAGCAACCAAGAAAUAAACUCUGAUGACAGACGACCCCAAUGGAGACGAGAAGACCGAAUUCCUUACCAAGACAGAGAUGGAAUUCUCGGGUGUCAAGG: 1.09
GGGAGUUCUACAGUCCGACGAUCAAGUCCUGUGCUACACAUCGUAUGUACCGAAUCGGGAAAGGGAAAGGGGAAAGGGGAAAGUAUUAUGUUACGCCGUUCGGAUCUGCACUUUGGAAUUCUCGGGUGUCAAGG: 0.274

Further values, each from its own experiment
CC(=O)N1CCC(c2ccc(C(=O)NC3=NCCN3)cc2C(F)(F)F)CC1 — remaining binding (Casein kinase I isoform alpha-like (CSNK1A1L, Homo sapiens, UniProt Q8N752); cell-free assay, competition with immobilised ligand; 1 µM): 100%
